Experimental data of several laboratories.
Every numbered part comes from another study and shows a few of its results, in no order. Positions count from the first letter of the parent shown.

Sample 1
Target: Sal-like protein 4, full length isoform B (SALL4, Homo sapiens, UniProt Q9UJQ4-2, residues 1-616)
Method: universal PBM
Molecule type: double-stranded DNA, one strand shown
Matrix: in vitro
Concentration: not given
Setting: 8-mer, flanks averaged, mean of replicates
Direction: higher = stronger binding
Strand | E-score
AGTGTGGA | 0.106
AATTCCGT | 0.23
CTGTTATC | 0.133
ACGTTTGG | 0.139
CTAAGCTA | 0.0791
AACCGAAC | -0.165
CCGTCTGA | -0.255
GGTCCTAC | -0.241
ATCTTCAA | 0.211
CCAGGACG | -0.248
AGTAACTC | -0.0662
GGAGGTAA | 0.0607
GATGAAGA | 0.105
AGGAAGGC | -0.174
CAAAAGAC | 0.0755
CTTTTGCC | 0.0697
CCCCGGAG | -0.362

Sample 2
Target: Interferon regulatory factor 3, full length, phosphomimetic (IRF3, Homo sapiens, UniProt Q14653, residues 1-427, S386D/S396D/S398D/S402D/T404D/S405D)
Method: protein-binding microarray
Molecule type: double-stranded DNA, one strand shown
Matrix: in vitro
Concentration: 2540 nM top
Setting: 60-bp whole probe
Added: salmon DNA 0.4 mg/ml
Baseline: random background probes
Direction: higher = stronger binding
All sequences stand within: GCCTAGCAC … GTCTTGATTCGCTTGACGCTGCTG
Target sequence (chain): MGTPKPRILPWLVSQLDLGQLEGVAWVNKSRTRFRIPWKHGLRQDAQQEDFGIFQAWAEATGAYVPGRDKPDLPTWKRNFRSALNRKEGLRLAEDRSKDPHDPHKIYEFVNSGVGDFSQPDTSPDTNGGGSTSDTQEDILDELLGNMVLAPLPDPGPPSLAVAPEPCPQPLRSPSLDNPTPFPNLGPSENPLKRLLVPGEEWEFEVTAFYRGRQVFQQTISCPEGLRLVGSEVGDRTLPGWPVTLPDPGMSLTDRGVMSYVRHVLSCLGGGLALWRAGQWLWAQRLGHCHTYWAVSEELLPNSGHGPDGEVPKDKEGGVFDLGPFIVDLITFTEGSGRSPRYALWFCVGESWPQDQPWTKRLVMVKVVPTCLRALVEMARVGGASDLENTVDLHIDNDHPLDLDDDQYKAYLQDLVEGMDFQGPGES
Strand | fitted relative affinity [z-score]
GACGTACTGAGTATCGAGACGTGCTAG | -0.159
TATATTATATATTTATGTATGTGCTAG | 0.519
TTAGGTTTCGGTTTCGGTTAGTGCTAG | 11.4
TTAGATATCGGGACGGGATTAGTGCTA | -0.124
GGACGGCAGTGCACACAGTGGTGCTAG | -0.683
GACGGTTCCGGTTACGGGACGTGCTAG | 3.36
TTAGGGCTGCTTATCCTTTAGTGCTAG | -0.514
TTAGGTTACCTTATCCTTTAGTGCTAG | 4.4
TCATGTATGGATGTGTTACTGTGCTAG | -0.25
TTAGGACCGGGGTATCGGTTAGTGCTA | 0.224
TTAGGTATCGGTATCTGTTAGTGCTAG | 4.13
GCCGGACTGGGGTATCGGGACGTGCTA | -0.27
TTAGAACTGAGACTGGACTAGTGCTAG | -0.478
GACGGTTTCGGATTGGGGACGTGCTAG | 5.85
TCAAGTTTTAATAACACACTGTGCTAG | 0.102
TACGGTCTCGGTATCGGGACGTGCTAG | 1.87
GACGGTTTCGGTCTCGGTACGTGCTAG | 8.67
ACCGCATTCGAATTCAGAATGTGCTAG | 1.67
GACGATCTCAGTCACGAGACGTGCTAG | 0.404

Sample 3
Target: CCNA1, cyclin fold, Cln2 fusion (human)
Method: yeast growth competition, sequencing
Matrix: yeast
Setting: weak parent motif
Baseline: not given
Direction: higher = stronger binding
Starting sequence: MASTL docking peptide (human); PMIAKNLMCELDE
Change | normalised enrichment score
M8Q | -0.105
I3A | 0.0301
E10H | 0.11
A4G | 0.231
K5C | 0.212
L7C | 0.0111
L7V | -0.247
D12H | 0.226
E10D | 0.241
N6R | 0.5
E10Y | 0.348
L7Y | 0.223
M8K | 0.0176
C9N | -0.227
A4W | 0.643
M8W | -0.0564

Sample 4
Target: RNA binding protein fox-1 homolog 2, RRM domain, GST-SBP tag (RBFOX2, Homo sapiens, UniProt O43251-10, residues 100-194)
Method: RNA Bind-n-Seq
Molecule type: RNA
Matrix: in vitro
Concentration: 365 nM
Setting: natural RNA segment, single round, ends assumed
Baseline: no-protein control
Direction: higher = stronger binding
All sequences stand within: GGGAGUUCUACAGUCCGACGAUC … UGGAAUUCUCGGGUGCCAA
Construct (chain): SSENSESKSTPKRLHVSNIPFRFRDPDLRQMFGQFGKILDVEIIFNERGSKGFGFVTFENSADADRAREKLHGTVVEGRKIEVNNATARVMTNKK
Strand | RBNS enrichment (R)
UAAGUGUCCCAAAGAUAAGAUAUCUUGGGGUCCACCAUGAGCUUCCAGUUUCAGCCGAGGCAGCAGUUUUCCUGGGAUAAUUAGCCAAGGGUUCCCCAGAGUCUUCCUAG | 0.33
GCCUUCUGGCCUCCAGCUGGGCCAGGAAGCAAGGUGGGAACACCUCCUCGGCCUUGAAGGCCCAAUGACAGGCCUUGCCUCAAGGCCUUUCCUUCUCAGAGCCUCCUGAA | 0.186
AUUGCUUUGAUAAACAGAGUUGUUUGGAAUUAUUGAAGAACAUUUUAAAAUGACUCCCUCAGUGAGUGCGUUGUCCAGUGUAUCUCAAAAAUCACCUAGGAGUUUUGCUA | 0.396
AUCUUCAGACGGUUCCUUUUGAUCAGCCCCUGGAAGAUGGGUCCCUCCUAAUCUAUGUCAUAGAAUUUUGCAUGCUGUAUGAUUGGCUUUGUCUUCUAUCUCCCACCAAA | 11.6
CAAAUGACAGCAGGAAACCACGGCAUAGUGCCACCAUCCAGGGUGCAGGGACAGAUGAUGUGCUGUCCUGUAUGAACCAUGCAUUCCAAUGGUACAACUGCCCAAAUCCA | 1.48
CACUUGAUUUGCUAAGGCUGGAGACAGGCACCAUUGCCAUGGGGCUGGUCCUAGUCACUGGCCGAGGAUAAGCCCGUCCCUGUCCCACAUUCUAGCCCCACUAUGCGGGG | 0.293
UUUCCAAAUUUUCUCUGAAGGUGAGUUUUAUAUCAAUAAGUAUGAAUAGAGAUUUACUUUAGGGGUCCCAUGGUUGGUAGCCCACAGCUUCUUCUAAAGGGCAUUGGCCU | 0.311
CUGAUUGGCCUCCUUCUGGGAUCCCAGGCUGCUGAGGAAGCUACUGCUACAUCCCUACCCCAAGGGGCUUGGUCAAGGUGCCUGUUCCUGGCUCUCUGGCUGCAUGUGAU | 4.87
AAAACAAUGGCAGAGGAGACAUCUCUGGUGUUCCCACCACCCUAGAUGAAAAUCCACAGCACAGACCUCUACCGUGUUUCUCUUCCAUCCCUAAACCACUUCCUUAAAAU | 0.401
UGAUUGCUGUAGUUUCUUUCAUAGAAAGUAGCUGAUCUGAUGUAAUCUUUUACCUUUUAAACAACCAGGAUAGAGAACCUAUUGGAGUUUGCAUUGUUGAUGACAGGUUC | 2.45
GUAUCCCCCCCAAAAUUUUAGAAUCUUGCUAUAUCCAAGCAAGACAUUAUUAAUAUUUUUUUUAAACUAAUUUGGGGAGGGAGGGUUAGCUUAAGUGCUAAGUCAGGUGU | 0.487
AAUUGUCUGACCCUAGAGGCAGAUGCUGCACUGCACUACUCCAAUGUCUUCCAUGGAGCCUCAGGUGCUCCCCCUCUCACCUGGCAGCCCCUUCAGCUGCUAGUGAUAUC | 0.317

Sample 5
Target: Histone acetyltransferase KAT6A, winged helix 1, GST fusion (KAT6A, Homo sapiens, UniProt Q92794, residues 1-85)
Method: protein binding microarray
Molecule type: double-stranded DNA, one strand shown
Matrix: in vitro
Concentration: not given
Setting: 8-mer, flanks averaged, mean of 2 arrays, mostly near background
Baseline: not given
Direction: higher = stronger binding
Construct (chain): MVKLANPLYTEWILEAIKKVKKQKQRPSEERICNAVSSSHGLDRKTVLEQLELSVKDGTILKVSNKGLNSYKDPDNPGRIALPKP
Strand | E-score
CCTAGCAA | -0.189
GCACGTGA | -0.225
GGATTGAC | -0.0142
CACTGACC | -0.137
TAACAACA | -0.00987
ACACAGTA | -0.121
GGCACGCC | 0.299
GTGCGCAC | 0.37
ACCCATCC | -0.035
TCGGCAGA | 0.106
CTCCGCGC | 0.399
GTAAGCAA | -0.127
AACGTGGT | -0.137
AAGCTCCC | -0.0162
CAACGTTC | 0.0437
CCTACGAA | -0.101

Sample 6
Target: Centromere-binding protein 1, full length, His-tagged (CBF1, Saccharomyces cerevisiae, UniProt P17106, residues 1-351)
Sequence of UniProt P17106 (whole entry, looked up): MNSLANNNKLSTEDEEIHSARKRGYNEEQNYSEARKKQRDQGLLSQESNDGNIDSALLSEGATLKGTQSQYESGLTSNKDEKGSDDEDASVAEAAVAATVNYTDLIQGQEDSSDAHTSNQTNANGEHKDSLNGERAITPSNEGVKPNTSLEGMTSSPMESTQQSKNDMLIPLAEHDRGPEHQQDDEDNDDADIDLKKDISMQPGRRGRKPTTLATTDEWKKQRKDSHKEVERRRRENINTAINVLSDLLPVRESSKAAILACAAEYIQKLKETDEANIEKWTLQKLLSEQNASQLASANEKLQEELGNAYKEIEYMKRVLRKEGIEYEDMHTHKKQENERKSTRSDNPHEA
Method: competition protein-binding microarray
Molecule type: double-stranded DNA, one strand shown
Matrix: in vitro
Concentration: 2 µM
Setting: whole 60-bp probe, lowest competitor level
Added: Pho4 competitor, 0.05 µM
Direction: higher = stronger binding
All sequences stand within: … GTCTTGATTCGCTTGACGCTGCTG
Strand | fluorescence intensity [a.u.]
GATGATGTTGGTTTGACCGTGATGGATGTCCAAGTA | 67.4
CTCCATATGGTACTATCACTTCTGCAAAGGTTATGA | 73.3
CATACCCAACCTTGCGCGGTGGGTGAAGATATTTGT | 59.4
GTCTTGTCTCATTTTCACGTGGTATTCCCCACTTCA | 958
GTCCAACAAGTATAACAGGTGATACACATAGAAAGA | 204
CTTACCGTCAACTTTGACGTGACGGAGCATCAAGAT | 77.4
CCTCAACAACGTCGGGGCGTGGGTATTGGGATATCG | 74.9
GTCCCCACCTCCTGTCACATGACAATTTTTGTTACT | 2070
CATCAATCTTTCCATCACGCAATGGCTTGTTGTTTT | 81.3
GGACAGATAGATCGGCACGTGTTGAGCCAGTTGTTC | 1860
CTTAATGGACTAAAGCACGTGACTCGTAAAACCCAT | 14300
AAATTACTAAGTTGAAACGTGGGTGACGCCGTATGA | 92.8
AAACAGAGCAACCATCACGTGCAAAAAGAACTACGA | 4150
GCCCTGTCCAGGATTGGCGTGGGACCGCTGGCCGCA | 48.4
CAAAGCCCTATTCGCGTCGTGACGGACTGAATGTCA | 112

Some of these lines once more (sample 2):
Strand | fitted relative affinity [z-score]
TTAGGTATCGGTATCTGTTAGTGCTAG | 4.13
GCCGGACTGGGGTATCGGGACGTGCTA | -0.27
TTAGAACTGAGACTGGACTAGTGCTAG | -0.478
GACGGTTTCGGATTGGGGACGTGCTAG | 5.85
TCAAGTTTTAATAACACACTGTGCTAG | 0.102
TACGGTCTCGGTATCGGGACGTGCTAG | 1.87
GACGGTTTCGGTCTCGGTACGTGCTAG | 8.67
